Published values collected from several papers.
Each numbered part is a random draw from the data of one study; scales do not carry over between parts.

Study 1
Target: TAR DNA-binding protein 43, full length, His tag (TARDBP, Homo sapiens, UniProt Q13148, residues 1-414)
Method: RNA Bind-n-Seq
Form: RNA
Matrix: in vitro
Concentration: 20 nM
Notes: 6-mer, flanks averaged, single round
With: 150 mM KCl
Baseline: input library
Direction: higher = stronger binding
Oligonucleotide | 6-mer enrichment (R)
GGUGGC | 3.24
AUCGAU | 0.575
GCUGAA | 0.885
GCCGCU | 0.837
GUGUAU | 1.1
CGAAGA | 0.815
UAGGUC | 0.705
CAAAGG | 1.1
AUGCGU | 0.917
UCGAGA | 0.787
UGGGUG | 3.85
AGACUG | 0.893
UCACUG | 0.645
GGUUGA | 1.41
AUAUUA | 0.623
GCAAGC | 0.927

Study 2
Target: Histone acetyltransferase KAT6A, both winged helices, GST fusion (KAT6A, Homo sapiens, UniProt Q92794, residues 1-181)
Method: protein binding microarray
Form: double-stranded DNA, one strand shown
Matrix: in vitro
Concentration: not given
Notes: 8-mer, flanks averaged, mean of 2 arrays, mostly near background
Baseline: not given
Direction: higher = stronger binding
Target sequence (chain): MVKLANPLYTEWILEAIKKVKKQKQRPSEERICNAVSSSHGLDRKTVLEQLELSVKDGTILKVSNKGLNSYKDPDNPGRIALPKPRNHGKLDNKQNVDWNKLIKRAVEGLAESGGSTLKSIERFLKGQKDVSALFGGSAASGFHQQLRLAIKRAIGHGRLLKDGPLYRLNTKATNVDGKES
Oligonucleotide | E-score
ACCTAATA | -0.0613
CGGTTTTA | 0.153
TGCAGTAA | -0.119
TAATTTGA | -0.148
ACTCGTTG | -0.158
ACGACCGC | 0.223
CCTGTGCG | 0.0909
ATGTACCA | -0.0928
AGGGCGTC | 0.195
AACTTGAA | -0.125
AGAGCGAT | -0.128
AAGCCACG | 0.0425
GAATACAA | 0.003
CCGATCTA | -0.0132
AGATCTGG | -0.149
GACTTGAC | -0.242
GCACAGTA | 0.000145
CCCTCTAA | -0.155
GCGCGCGA | 0.392
AAATTTTG | 0.0223
CGTAGGGA | 0.0158
AAGCCCCG | 0.0998
CCCGCATA | 0.251

Study 3
Target: Interferon regulatory factor 5, full length, phosphomimetic (IRF5, Homo sapiens, UniProt Q13568-2, residues 1-514, S451D/S453D/S456D/S462D)
Method: protein-binding microarray
Form: double-stranded DNA, one strand shown
Matrix: in vitro
Concentration: 940 nM top
Notes: 60-bp whole probe
With: salmon DNA 0.4 mg/ml
Baseline: random background probes
Direction: higher = stronger binding
Constant ends, left off below: GCCTAGCAC … GTCTTGATTCGCTTGACGCTGCTG
Oligonucleotide | fitted relative affinity
TTAGAACTGGGGACTGGACTAGTGCTA | -0.283 z-score
TCATCACTTTCTTTAACACTGTGCTAG | 2.22 z-score
GACGAACTCAGTCTCGAGACGTGCTAG | 0.684 z-score
GACGGACTGCTGCTCCTGACGTGCTAG | -0.256 z-score
GAAGGTATCGGGACTGGGGACGTGCTA | 2.27 z-score
GACGGACTGGTCTATCGGGACGTGCTA | -0.161 z-score
GATGGTCTCCTTCTCCTGACGTGCTAG | 0.47 z-score
GACGAACTGGGGACTGAAGACGTGCTA | 0.114 z-score
TCACTTTGGCCTCTAGGACTGTGCTAG | -0.241 z-score
TCCTATGTCATTTACATTTTGTGCTAG | 0.118 z-score
TTAGGTCTCGGTTTCTGTTAGTGCTAG | 6.31 z-score
GACGATATCAGTATCCAGACGTGCTAG | -0.187 z-score
GACAGTTTCGGTTTCGGGACGTGCTAG | 14.8 z-score
TTAGGTATCCTACTGCTTTAGTGCTAG | 0.127 z-score
TTAGATATCAGTTTCGATTCGTGCTAG | 7.87 z-score
GAGGGTTTCGGACTGGGGACGTGCTAG | 4.47 z-score

Study 4
Target: RNA binding protein fox-1 homolog 2, RRM domain, GST-SBP tag (RBFOX2, Homo sapiens, UniProt O43251-10, residues 100-194)
Method: RNA Bind-n-Seq
Form: RNA
Matrix: in vitro
Concentration: 365 nM
Notes: natural RNA segment, single round, ends assumed
Baseline: no-protein control
Direction: higher = stronger binding
Constant ends, left off below: GGGAGUUCUACAGUCCGACGAUC … UGGAAUUCUCGGGUGCCAA
Residues (chain): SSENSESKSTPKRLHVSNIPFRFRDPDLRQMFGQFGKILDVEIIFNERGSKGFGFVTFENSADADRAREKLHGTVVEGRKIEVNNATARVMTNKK
Oligonucleotide | RBNS enrichment (R)
AGUGCGGUACAAUCUGGAGCCCACAGCUGUCGGUCAGAACCUCCUGUGAGACAGAUGGAACCUUCACAAGGGCGCCUUUGGUUCUCUGAACAUCUCCUUUCUCUUCUUGC | 0.392
AGACACAGUGGAAGGGGGAAAAAAAGCUACGAGAUUGUUUUUACACUUUUAGCAAAGUUUCUGUGGAUGCUAGUAAUUUAUACUUGAUCAGUUGUAUUCUAGUAAAGAAC | 0.569
UUAAAGUAUUACUAUAGCAUGCCUCUCAGAACUGCUAGCUUCCUAAUAAACCACAAAUCCACCGUUUCUAUGUAGCUUGUAUUUGUAAAGUCUGAGUUUACCGUCUGAAU | 5.69
AUCCUUACACUUCAUAAACUUUUGUCUCCACGUUGUUACCAUAUUUGGAGACAGAAACAGGAGUUUCUCCAAAUCCAAUGAAAACAUGGAAAAUUCAAGGAUUGUUUAAA | 0.276
CCUCCUACAGCUGGCCUAACCACUCUUGAGUCGGGGUGGGGGUAACCCUCAAGGAGGAGGUAACUAAGAGGCUCUUCCAGGGGUAGCUGGUGGGUGUGCUUUUCAUAGGC | 0.437
UGAGAACUGCUGCUCUAAGGCCUUCUGUAGAAGUCCAUUCCUAUCACAGUAAGGCUGAACUCUGAAAACUAUCCAUUAGAGCUCUGGUUCUGGGUGGGGAUAAGGAUGGG | 0.425
UCCUUCAGCAGACAAAGUCAAGCAGCUUUAAGUACAAGGCAGCUUGAAACCUCUCUGAUGAAAGUGAAAAAUGUGGGUAGCUUAUACUUUCAAACUAAUGCCAGUGACUA | 0.433
UGCUGCUUUAGUCUUCUUUUCUUUGAUGCUUUGUUUAGAUGUUUAUAAGAAAUAGGUUUAUUUUUCCAGUGUAAAUUUCAGAAUUUAAAGAAAACUGGUUGUAGUUUACU | 0.876

Some of these lines once more (study 4):
Oligonucleotide | RBNS enrichment (R)
CCUCCUACAGCUGGCCUAACCACUCUUGAGUCGGGGUGGGGGUAACCCUCAAGGAGGAGGUAACUAAGAGGCUCUUCCAGGGGUAGCUGGUGGGUGUGCUUUUCAUAGGC | 0.437
UGAGAACUGCUGCUCUAAGGCCUUCUGUAGAAGUCCAUUCCUAUCACAGUAAGGCUGAACUCUGAAAACUAUCCAUUAGAGCUCUGGUUCUGGGUGGGGAUAAGGAUGGG | 0.425
UCCUUCAGCAGACAAAGUCAAGCAGCUUUAAGUACAAGGCAGCUUGAAACCUCUCUGAUGAAAGUGAAAAAUGUGGGUAGCUUAUACUUUCAAACUAAUGCCAGUGACUA | 0.433
UGCUGCUUUAGUCUUCUUUUCUUUGAUGCUUUGUUUAGAUGUUUAUAAGAAAUAGGUUUAUUUUUCCAGUGUAAAUUUCAGAAUUUAAAGAAAACUGGUUGUAGUUUACU | 0.876
